Published values gathered from unrelated publications.
Numbered parts are unrelated; each lists some results of a single study.

Series 1
Target: PABPC1L2, full length, GST fusion (mouse, UniProt A0ABA7IW68)
Technique: RNAcompete
Form: RNA
Matrix: in vitro
Concentration: 20 nM
Notes: 7-mer, probes averaged, single round
Baseline: mean of 7-mers
Reading: higher = stronger binding
Construct (chain): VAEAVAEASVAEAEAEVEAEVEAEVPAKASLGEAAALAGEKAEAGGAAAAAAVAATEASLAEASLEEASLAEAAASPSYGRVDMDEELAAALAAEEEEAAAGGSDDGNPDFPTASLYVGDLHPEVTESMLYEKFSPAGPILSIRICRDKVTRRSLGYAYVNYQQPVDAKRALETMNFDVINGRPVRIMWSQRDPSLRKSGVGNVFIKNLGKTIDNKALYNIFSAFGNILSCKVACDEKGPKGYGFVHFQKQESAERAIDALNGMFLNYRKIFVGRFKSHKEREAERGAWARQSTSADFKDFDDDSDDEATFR
Oligonucleotide	7-mer Z-score
CUCCGGA	-0.159
CUGAAAA	4.92
AUGCGCG	-0.0264

Series 2
Target: Prothrombin, mature alpha-thrombin (F2, Homo sapiens, UniProt P00734)
Technique: aptamer microarray, sandwich
Form: DNA with 2'F-ANA
Matrix: in vitro
Concentration: 200 nM
Notes: whole 15-mer aptamer, many near background
Added: Cy3 exosite-II aptamer, 400 nM
Reading: higher = stronger binding
Oligonucleotide	mean fluorescence intensity
GGTTGGTGTGGTTGG (2'F-ANA at 2 3 4 7 8 12 13 14)	382 a.u.
GGTTGGTGTGGTTGG (2'F-ANA at 1 2 5 7 10 11 12 13 15)	58 a.u.
GGTTGGTGTGGTTGG (2'F-ANA at 1 4 6 8 9 10 12)	64.7 a.u.
GGTTGGTGTGGTTGG (2'F-ANA at 2 4 7 12)	731 a.u.

Series 3
Target: Interferon regulatory factor 5, full length, phosphomimetic (IRF5, Homo sapiens, UniProt Q13568-2, residues 1-514, K96S/S451D/S453D/S456D/S462D)
Technique: protein-binding microarray
Form: double-stranded DNA, one strand shown
Matrix: in vitro
Concentration: 250 nM
Notes: 60-bp whole probe
Added: salmon DNA 0.4 mg/ml
Baseline: random background probes
Reading: higher = stronger binding
Oligonucleotide	log fluorescence [z-score]
GCCTAGCACTATAATATATATATTGTTAGGTGCTAGGTCTTGATTCGCTTGACGCTGCTG	0.59
GCCTAGCACGACGGTCTCCTTTTTCTGACGTGCTAGGTCTTGATTCGCTTGACGCTGCTG	0.323
GCCTAGCACACTGCTCTGTTGCCTGGTCCTGTGCTAGTCTTGATTCGCTTGACGCTGCTG	-0.22
GCCTAGCACAGGGGACTGACTCTTCAGCACGTGCTAGTCTTGATTCGCTTGACGCTGCTG	-0.162

Other studies, line by line
Molecule	target	test	test system	conditions	how to read	quantity	result
PhoQ, residues 284 288 289 292 302 303 STVVAA	PhoP, residues 12 14 15 18 19 YHFSH (Escherichia coli, UniProt P23836)	Sort-seq, refers to: YFP reporter	E. coli	PhoQ-PhoP variant library, added: 10 µM Mg2+	baseline: high Mg2+ state, higher = stronger signaling	fold induction	7.92

Excerpt of the above (series 1):
Oligonucleotide	7-mer Z-score
CUGAAAA	4.92
